Results collected from several papers.
Every numbered part comes from another study and shows a few of its results, in no order.

Sample 1
Target: RNA binding protein fox-1 homolog 2, RRM domain, GST-SBP tag (RBFOX2, Homo sapiens, UniProt O43251-10, residues 100-194)
Technique: RNA Bind-n-Seq
Molecule type: RNA
Sample: in vitro
Tested at: 365 nM
Notes: natural RNA segment, single round, ends assumed
Reference: no-protein control
Reading: higher = stronger binding
All sequences stand within: GGGAGUUCUACAGUCCGACGAUC … UGGAAUUCUCGGGUGCCAA
Residues (chain): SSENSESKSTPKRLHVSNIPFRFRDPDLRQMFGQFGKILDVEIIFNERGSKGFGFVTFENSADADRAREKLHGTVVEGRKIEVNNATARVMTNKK
| Sequence | RBNS enrichment (R) |
| --- | --- |
| UAAAGUGACAGUGUAUCUAACAGUUGUUAGAGAACUCCCCAUUUCUGUUCCCCUGUGCUGUGUAUGGUCUGUGUUCCUCUGGUUUGAUUCCCUCUGGCGGUGGGGGAGGG | 3.65 |
| CACUUCAGGCCGCAUGGGCAGGAAUGUGGCCUGGGGCUGGCAGGGUUGGCAGGGCUGCCAUCCCAGCUGGCCGGAAAGAGGCUGUGGUUUCGAAUAUGCAGAUGGCCUUG | 0.651 |
| CCCAGUUGAUAACAGUGUUUGAUUAAAUUUCCACUCAAGCCAAACAUGGUUACUAAGAAGAGAAAAACCUGAUGUUUGCAUAAUAUUUUUUUUCCCCUCGAGAUGGAGUC | 0.978 |
| CGUUUGUCGAAGCCUCCUCUGAAUGGCUUUGUGAAAUCAAGAUGUUUUAAUCACAUUCACUUUACUUGAAAUUAUGUUGUUACACAACAAAUUGUGGGGCCUUCAAAUUG | 0.275 |
| AGUUGUACGCCCAGGCAACAAGGGCUGAGCUGCGCUUGCGUGGCUGUUUCAUGACCGCUUGUUUUUCUCCUUUUGGUGUAAUGUUUUACAAAUCCUUUGGCCUGAGAACU | 0.365 |
| AUUUCUUUUAUCUCCAUCUACUUUUUUAUAAACUGAUAUCUAUGUGUCAGAAAUGUACAAUUUUAGGGUAUGUUUAGAUUAAAUAUUUUUUAUUUUUAAGUUACCAGGCA | 0.948 |
| GGGGGACUGCCUGACUCCCAGAGGGACUUGAAACUGAAGCAAGAAGGUUGCAUUCUCCACCAAGGGAGUUAACCUACCUGAACUAAGUAGAAAUGCCAGUCUUCCACUAC | 0.308 |
| CGCGGCAGCUGCACGCGCUCACAGAAGGUGGAGGUUACUUGCCCAGGUACAGACGACCUCGGGGCAGUGACGAGCAAAGACCAGAGACUGCUGAGCCCUCGCAUCUGGGU | 1.23 |
| CCGUGUGUUGUCAUGUCACUCACCCCAAGCACCUGCUGGCUGCUGGAAGCAUACCCCAAGACCCCAAGCCUUGACUCCAGCUGCGCCCACAGGAAGUCCAGUCCCGACAG | 0.601 |
| GCCCCCUUCACUCUUGGAAGUUUGGGGCUUCAAGGUUUAUUCUGGCAAGAACACCUCGGAGCCACUGCAUUGUUUUGCCAAAAACUUACUGCAGAUUAAGUAAAGAACUU | 0.321 |
| UGGCUGAUAGCAACUGACUUAGACCUGUACCUGGAUUUCACUUGAAUUUAUAAAAUGUGUAUUGCUCAAAAAAAAAAAAAAGGUUUGCAAAUAUUUGCACAUAAGAUCUU | 0.953 |
| CGUAAAGGGUGGAGGGCUUGAGGCUUAAAUAUAUGAGUAUGUUUAUACUGCUCUACUGCACUUAGACUCUCCACUCACAGAUAAGUCUUGUCUGUUAGUAGUGCUGUAGA | 0.39 |

Sample 2
Target: Centromere-binding protein 1, full length, His-tagged (CBF1, Saccharomyces cerevisiae, UniProt P17106, residues 1-351)
Sequence of UniProt P17106 (whole entry, looked up): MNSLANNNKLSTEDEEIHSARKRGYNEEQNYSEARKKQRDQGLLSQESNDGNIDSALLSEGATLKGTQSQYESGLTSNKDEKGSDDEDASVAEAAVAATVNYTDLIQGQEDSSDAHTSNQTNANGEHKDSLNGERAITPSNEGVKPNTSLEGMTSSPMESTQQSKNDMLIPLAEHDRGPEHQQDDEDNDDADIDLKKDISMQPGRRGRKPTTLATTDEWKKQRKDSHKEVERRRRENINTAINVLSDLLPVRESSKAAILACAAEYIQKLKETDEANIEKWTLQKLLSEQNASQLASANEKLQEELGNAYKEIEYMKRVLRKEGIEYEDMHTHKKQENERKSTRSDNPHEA
Technique: competition protein-binding microarray
Molecule type: double-stranded DNA, one strand shown
Sample: in vitro
Tested at: 2 µM
Notes: whole 60-bp probe, lowest competitor level
With: Pho4 competitor, 0.05 µM
Reading: higher = stronger binding
All sequences stand within: … GTCTTGATTCGCTTGACGCTGCTG
| Sequence | fluorescence intensity |
| --- | --- |
| CGTCCTAGCGATTGAGTGGTGGGTGCCATGAGGAAG | 76.8 a.u. |
| CTTCTGTAAATTTGTAACGTGGGTGGACGCGCCCCG | 86.2 a.u. |
| GAGAGGATTGCGACCTTGTTATCATGGCATTGATGT | 56.5 a.u. |
| CTTCTCTTTCCCACCACCGTGGGTATCCTTTTTCTT | 67 a.u. |
| CTTCTGTAAATTTGCGGGGTGGGTGGACGCGCCCCG | 78.9 a.u. |
| CGTCCTAGTGATTGGCTTGTGGGTGCCATGAGGAAG | 81.7 a.u. |
| AAAGCGGTAATTTGTCCTGTGGGTGCAGATATCTAT | 71.8 a.u. |
| TGCGCAACAACTTGCACCGTGGGTGTATGTCTAGAA | 66.8 a.u. |
| AAAGCGGTAATTTGTCTCGTGGGTGCAGATATCTAT | 125 a.u. |
| CTTTCCCGATCTTGTGGTGTGGGTGTAGCACATTTG | 89.9 a.u. |
| AAGCTCGTTGGTTTGCACGTATCTTAGGCTTCACTA | 68.3 a.u. |
| GGTTCAAAATCCCGTCACGATGAAATAGAAAATGAA | 137 a.u. |
| TGCGCAACAACTTTTCACGTGAATTTATGTCTAGAA | 991 a.u. |
| CAAGGTTTTCTTTGCCACGCTCAAGCATTCATCGTT | 76.6 a.u. |
| AAGAAGCCATTAGAGCTCGTGCCAGGGAACTAGAAG | 85.3 a.u. |
| CGTCCTAGCGATTGAATGGTGGGTGCCATGAGGAAG | 68 a.u. |
| AGTTAAAACCAGATATGCGTGGGACATAGTAGGGTG | 70.5 a.u. |
| ATTAAGATCAATCGGCACGTGCTTTTTTCGAACATC | 2540 a.u. |

Sample 3
Target: RING finger protein unkempt homolog, zinc fingers 1-6, GST-SBP tag (UNK, Homo sapiens, UniProt Q9C0B0, residues 30-357)
Technique: RNA Bind-n-Seq
Molecule type: RNA
Sample: in vitro
Tested at: not given
Notes: RNA with constant flanks, human and mouse sites, ends assumed
Reference: input RNA pool
Reading: higher = stronger binding
All sequences stand within: GGGAGUUCUACAGUCCGACGAUC … CAACAGAGGAUUGAGCAUCA
Residues (chain): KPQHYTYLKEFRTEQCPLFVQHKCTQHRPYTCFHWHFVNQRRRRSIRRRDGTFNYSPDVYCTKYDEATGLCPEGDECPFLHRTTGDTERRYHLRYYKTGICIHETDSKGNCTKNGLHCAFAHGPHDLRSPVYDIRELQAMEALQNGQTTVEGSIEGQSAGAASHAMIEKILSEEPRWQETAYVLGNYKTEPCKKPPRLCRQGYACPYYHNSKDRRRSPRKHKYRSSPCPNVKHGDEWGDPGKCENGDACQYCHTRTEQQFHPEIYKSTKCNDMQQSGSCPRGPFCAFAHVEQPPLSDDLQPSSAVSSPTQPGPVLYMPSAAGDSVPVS
| Sequence | bound/input enrichment [ratio] |
| --- | --- |
| GAAUCCACAAAUGAACAGUUACAGAUACACUAUAAGGUUUGCUAUGCGCGUGUCCUUGAUUACAGAAGGAAAUUCAUUGAGGCCGCCCAGAGGUACAAUGAGCUCUCUUACAAGACAAUA | 0.398 |
| AAAUUAACUGAGCUAUAUAAUGCUUAUGUGGAAACUCAGGAUCAGUUGCUUUUGGAAAAACAAGAAAAUAAAAGGAUUAAUAAGUAUCUGGAUGAGAUAGUAAAAGAAGUGGAAGCCAAA | 0.563 |
| UACCUCAGUACCUCAGUAGGAUGCAAGGACUGUGCCUUCUUUGACUCAGCCAGUGCUUGCUAUAGUCAGGCUACAAGCCAAGAGGUCCCCACAGAGUAUUAACAAUAAAUACUUCUGGCC | 0.0703 |
| GAGCAAUUUGAGAGGUACCUGCAUGACGAGAGCGGCUUGAACAGGCGGCACAUCAUUGAUAAUAGGGUGCAUUGUUGCUUUUACUUUAUUUCACCUUUUGGACAUGGACUUAAGCCCUUA | 0.251 |
| ACCACUGAGAGCAGUCAAUCCUUUGUUGCAGUACAUCACAGUGAGGAAGGCAGGGAUACCUUAGGAAGCAGUACAAAUCUUCAUAAUCACUCUGAGGGAGAGUAUAUUCCAGGAGCUUGU | 0.924 |
| CUUCUUUACCCCCCCAAUGUUGGUGAUUGAAGAUCCUCUCUUCAGUGGCGUGAAUAAUGAUAGUUAACUUUCCAUUCAUACUUGGAACAAACCCCUUUGGUAAUGUCAAAGGCAGUACCU | 0.58 |
| CCUCUGGCCACAUAUGCCCCUGUCAUCUCUGCUGAGAAAGCCUACCACGAACAGCUUACUGUAGCAGAGAUCACCAAUGCUUGCUUUGAGCCAGCCAACCAGAUGGUGAAAUGUGACCCU | 0.103 |
| AUCUCCAAGUUUAAAAAGUUUGAGGUACAGAGGGAAGGCCAGAUUUUUUUAAUGAAAUUAUAUAGAUUAGAUCUCAGUAUUUAAACUGUUCCUCAAUUUUGUGAGGCUGUGUUGGAAAUA | 2.41 |
| GCAAAAGUUUAUGUCUCAUUGGAUCAACCUGUGACUGCUUUAAAUCUUUUCAAACAAGGCUUAGAUAAGUUUCCAGGAGAAGUAACCCUGCUCUGUGGAAUUGCAAGAAUCUAUGAGGAA | 0.186 |
| AGGUUACUUAUGCAUCAUAUCAGAGAUUGUUUACCAGAGCUGAAAACAAGAAUAAAUGUCUUAGCUGCUCAGUAUCAGUCUCUUCUAAAUAGCUAUGGUGAACCGGUGGAUGAUAAAAGU | 0.204 |
| GUCCCCCUCUUGCUAAAUAAUGUGAAAGGGGAGCCCCCAGAGGACUCACUGCCUGUAGAUCACUUUCAGACACAAACUGAGCCAGUGGACUUGUCAAUCAACAAAGCCAGGACCUCCCCU | 0.21 |

Sample 4
Target: Histone acetyltransferase KAT6A, winged helix 1, GST fusion (KAT6A, Homo sapiens, UniProt Q92794, residues 1-85)
Technique: protein binding microarray
Molecule type: double-stranded DNA, one strand shown
Sample: in vitro
Tested at: not given
Notes: 8-mer, flanks averaged, mean of 2 arrays, mostly near background
Reference: not given
Reading: higher = stronger binding
Target sequence (chain): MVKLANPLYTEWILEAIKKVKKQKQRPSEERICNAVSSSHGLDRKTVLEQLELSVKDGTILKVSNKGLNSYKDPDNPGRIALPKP
| Sequence | E-score |
| --- | --- |
| AGATATAG | -0.145 |
| CACCCATG | -0.077 |
| CGTTACTA | -0.0115 |
| CAGCACGG | 0.15 |
| GGCGGTAC | 0.314 |
| CATTTGGG | -0.0364 |
| CGGCGATC | 0.392 |
| CAACGGCA | 0.271 |
| GAATTGTA | -0.192 |
| CCTTTTCC | -0.0857 |
| CAATAACG | -0.0393 |
| GCCGAGCC | 0.241 |
| CCGAAGTA | -0.00102 |
| CCCTTCAG | -0.12 |
| ATGCAACC | -0.119 |
| GGATGGAA | -0.144 |
| AGAATGTC | -0.25 |
| CATAGACC | -0.0119 |
| ACGTTGCC | 0.0694 |
| GGCAAAGA | 0.157 |
| GATGCGCC | 0.286 |
| ACACGCCC | 0.141 |
| TACAATAA | -0.0326 |
| TTGCGAAA | 0.0224 |
| ATATCTCC | 0.0724 |

A few entries again (sample 2):
| Sequence | fluorescence intensity |
| --- | --- |
| CGTCCTAGCGATTGAGTGGTGGGTGCCATGAGGAAG | 76.8 a.u. |
| CTTCTGTAAATTTGTAACGTGGGTGGACGCGCCCCG | 86.2 a.u. |
| GAGAGGATTGCGACCTTGTTATCATGGCATTGATGT | 56.5 a.u. |
| CTTCTCTTTCCCACCACCGTGGGTATCCTTTTTCTT | 67 a.u. |
| CTTCTGTAAATTTGCGGGGTGGGTGGACGCGCCCCG | 78.9 a.u. |
| CGTCCTAGTGATTGGCTTGTGGGTGCCATGAGGAAG | 81.7 a.u. |
| AAAGCGGTAATTTGTCCTGTGGGTGCAGATATCTAT | 71.8 a.u. |
| TGCGCAACAACTTGCACCGTGGGTGTATGTCTAGAA | 66.8 a.u. |
| AAAGCGGTAATTTGTCTCGTGGGTGCAGATATCTAT | 125 a.u. |
| CTTTCCCGATCTTGTGGTGTGGGTGTAGCACATTTG | 89.9 a.u. |
